Published values from different studies.
Compare with care: the assays were run in different laboratories. Numbers after ± are the reported error.

For `CCOCc1nc(O)c(-c2nnc(Cc3ccc(Cl)cn3)o2)c(O)c1-c1c(OC)cccc1OC`, the plasma concentration was 95 ± 5 nM (anaesthetised rat, plasma; intravenous infusion, 1 µg/kg/min, 15 min).
`O=S(=O)(NCC[S+]([O-])c1ccccc1F)c1cc(Cl)cc(Cl)c1O` (centres unmarked): “DLS scattered light intensity” 2.01e+06 counts/s (colloidal aggregate formation, dynamic light scattering; 50 mM potassium phosphate buffer; 200 µM, pH 7.0, 1% DMSO; higher = more aggregation).
Under “patients with adverse events”, `Cc1ccc(C(=O)N(CCCN)C(c2nc3snc(C)c3c(=O)n2Cc2ccccc2)C(C)C)cc1` (centres unmarked) is recorded as 8% (refers to: Hypophosphatemia; human patients; intravenous, dose not given, CTCAE grade ≥3, all doses).
Under “Freundlich coefficient KF”, `COc1ccnc(C(=O)O)c1O` is recorded as 219 mL/g (soil adsorption; tested soils; geometric mean).
`C[C@H]1[C@H]2N(C(=O)CN(C)N2C(=O)NCc2ccccc2)[C@@H](Cc2ccc(OP(=O)(O)O)cc2)C(=O)N1Cc1cccc2cccnc12` gave an AUC(0-24 h) of 3350 ng·h/mL (patients, plasma; intravenous infusion, 140 mg/m2 over 4 h, mean).
`C=CCN1CC(=O)N2[C@@H](Cc3ccc(O)cc3F)C(=O)N(Cc3cccc(N4CC(N5CCN(CC)CC5)C4)n3)C[C@@H]2N1C(=O)NCc1ccccc1` has a treatment-related nausea of 0% (advanced solid tumour patients; oral, 160 mg twice daily, grade ≥3, dose-escalation).
Under “daily mean concentration”, `C[C@H](CCC(=O)NCC(=O)O)[C@H]1CC[C@H]2[C@@H]3CC[C@@H]4C[C@H](O)CC[C@]4(C)[C@H]3C[C@H](O)[C@]12C` is recorded as 239 ± 52 nM (human, plasma; endogenous baseline diurnal).
`N#Cc1ccc2c(c1)[C@H]1CCCN(C(=O)c3ccc4[nH]cnc4c3)[C@H]1C2`: “ACTH level change” 0.4 pmol/L (human; 160 mg, end of trial; baseline: baseline).
With `CCCCOc1ccc([C@H]2CC[C@H](CCC)CC2)c(F)c1F` the concentration was 7.73 ng/mL (refers to: compound; human pregnant women, male fetuses, cord serum; dose not given, paired maternal-cord samples, mean).
Under “kidney weight change”, `CCc1cc(C(=O)NC)c2nccc(N3CCc4c(cc(Cn5ccnc5)cc4-c4cn(C)nc4C(F)(F)F)C3=O)c2c1` is recorded as -1.31% (Sprague Dawley rat; oral, 100 mg/kg twice daily, 7 days; baseline: vehicle).
For `C[C@@H](O)[C@H]1C(=O)N2C(C(=O)O)=C(S[C@@H]3CN[C@H](C(=O)N(C)C)C3)[C@H](C)[C@H]12`, “deviation from nominal concentration” read -5.1% (human whole blood; concentration not given, 48 h, 4 °C).
For `CC(=O)Nc1c(F)ccc(NS(=O)(=O)c2cccc(Cl)c2O)c1F`, “DLS scattered light intensity” read 739000 counts/s (colloidal aggregate formation, dynamic light scattering; 50 mM potassium phosphate buffer; 200 µM, pH 7.0, 1% DMSO; higher = more aggregation).
For `Nc1ccn([C@@H]2O[C@H](CO)[C@@H](O)C2(F)F)c(=O)n1`, the Tmax, median was 1.25 h (refers to: dFdU; human, plasma; intravenous, 1000 mg/m^2, added: before paricalcitol).
With `COC(=O)C(Cc1cccc(OC)c1I)NC(=O)CNCc1ccccc1` (centres unmarked) the half-life was greater than 3 h (beagle dog; 1 µM).
Under “incidence of AE, immune-mediated, treatment-related”, `Cc1cc(-c2nnc(N)nc2-c2ccc(F)cc2)cc(Cl)n1` is recorded as 0% (refers to: rash, grade ≥ 3; post-IO NSCLC patients; oral, 100 mg once daily).
Under “observations QTcF >450 ≤480 ms”, `CCOc1c([C@H](C)n2nc(C)c3c(N)ncnc32)cc(Cl)c(F)c1[C@@H]1CNC(=O)C1` is recorded as 4.2% (ECG; previously treated B-cell malignancy patients; oral, 20 mg once daily, baseline QTcF ≤450 ms).
`O=C(CCCN1CC=C(n2c(=O)[nH]c3ccccc32)CC1)c1ccc(F)cc1` has a QTc interval of 308 ± 0.3 ms (male Hartley guinea pig, anaesthetized; intravenous, 0.03 mg/kg, baseline before infusion).
`Cc1c(-c2ccc(N3CCc4cccc(C(=O)Nc5nc6ccccc6s5)c4C3)nc2C(=O)O)cnn1CC12CC3(C)CC(C)(C1)CC(OCCNCC[C@H](O)CO)(C3)C2` — result for “PR interval change”: -6 ms (anesthetized male beagle dogs; intravenous infusion, 0.3 mg/kg/min, 15 min; baseline: vehicle).
`Cc1nc(-c2ccc(OCC(C)C)c(C#N)c2)sc1C(=O)O` gave a pyrexia incidence of 5% (healthy Chinese subjects; oral, 40 mg, fed).
The AUC(0-72h) increase of `C#Cc1cccc(Nc2ncnc3cc(OCCOC)c(OCCOC)cc23)c1` is reported as 78% (UPLC-MS/MS; Wistar rat, male, plasma; oral, dose not given, four weeks, added: PPA 1000 mg/kg, high dose; baseline: control).
Under “patients with sore throat”, `COc1cc(Nc2ncc3c(n2)-c2ccc(Cl)cc2C(c2c(F)cccc2OC)=NC3)ccc1C(=O)O` is recorded as 13% (cancer patients; oral, dose not given, all grades any attribution, added: pembrolizumab).
With `COCCOc1cnc2ccn([C@H](C)c3nnc4c(F)cc(-c5cnn(C)c5)cn34)c(=O)c2c1` the Cmax was 700 ng/mL (patients, plasma; oral, 50 mg once daily, day 1).
`OC[C@H]1O[C@@H](c2ccc(Cl)c(Cc3ccc(O[C@H]4CCOC4)cc3)c2)[C@H](O)[C@@H](O)[C@@H]1O`: “difference in V3/F” 83% (population PK model; human, plasma; oral; baseline: male patients, female relative to male).
`O=C(Nc1nc2cccc(-c3ccc(CN4CCS(=O)(=O)CC4)cc3)n2n1)C1CC1`: “treatment-emergent adverse events” 0% (refers to: pyrexia; rheumatoid arthritis patients; oral, 75 mg once daily, 4 weeks, any relatedness).
`CC(C(=O)NCC(=O)NCC(CNC(=O)CNC(=O)C(C)N1CCN(CC(=O)[O-])CCN(CC(=O)[O-])CCN(CC(=O)[O-])CC1)(CNC(=O)CNC(=O)C(C)N1CCN(CC(=O)[O-])CCN(CC(=O)[O-])CCN(CC(=O)[O-])CC1)CNC(=O)CNC(=O)C(C)N1CCN(CC(=O)[O-])CCN(CC(=O)[O-])CCN(CC(=O)[O-])CC1)N1CCN(CC(=O)[O-])CCN(CC(=O)[O-])CCN(CC(=O)[O-])CC1.[Gd+3].[Gd+3].[Gd+3].[Gd+3]` (centres unmarked): “cumulative urinary excretion” 100% (ICP-MS; cynomolgus monkey; dose not given, 4 d, mass balance group; baseline: dose).
For `CC(=O)Oc1ccccc1C(=O)O`, the QTc interval was 358 ± 0.5 ms (male Hartley guinea pig, anaesthetized; intravenous, 3 mg/kg, baseline before infusion).
Under “DLS scattered light intensity”, `CC(Cc1c(Cl)cccc1Cl)NS(=O)(=O)c1cnn(C)c1C(=O)O` (centres unmarked) is recorded as 1.38e+06 counts/s (colloidal aggregate formation, dynamic light scattering; 50 mM potassium phosphate buffer; 200 µM, pH 7.0, 1% DMSO; higher = more aggregation).
Under “volume of distribution”, `CC(C)[C@@H](CS(=O)(=O)C(C)C)N1C(=O)[C@@](C)(CC(=O)O)C[C@H](c2cccc(Cl)c2)[C@H]1c1ccc(Cl)cc1` is recorded as 0.732 L/kg (FVB Abcb1a/b-/-Abcg2-/- mice, plasma; intravenous, 20 mg/kg).
`CC(C)(C(=O)N1CCOc2c(C#N)cncc2C1)C(F)F`: “subjects with adverse event” 12.5% (refers to: chest discomfort; human; oral, 15 mg twice daily, 14 days, multiple ascending dose).
For `Cc1nc2cccc(OCC(C)(C)C(=O)NC(C)C)c2c(N)c1C(=O)O`, “micronucleated normochromatic erythrocytes” read 1.1 per 2000 PCEs (male CD-1 mouse, bone marrow; oral, 2000 mg/kg, 48 h).
The HC50 of `O=[N+]([O-])c1cnc2ccc(F)cc2c1O` is reported as greater than 128 µg/mL (haemolysis; sheep erythrocytes; 1 h, pH 7.5).
`CCO[C@H]1CCN(Cc2c(OC)cc(C)c3[nH]ccc23)[C@H](c2ccc(C(=O)O)cc2)C1`: “incidence upper respiratory infection” 0% (PNH patients, active haemolysis; oral, 25 mg, 4 weeks, treatment).
`CC[C@H](C)[C@H](NC(=O)[C@H](Cc1ccccc1)NC(=O)[C@H](CCC(=O)O)NC(=O)[C@H](CCCCNC(=O)COCCOCCNC(=O)COCCOCCNC(=O)CC[C@H](NC(=O)CCCCCCCCCCCCCCCCC(=O)O)C(=O)O)NC(=O)[C@H](C)NC(=O)[C@H](C)NC(=O)[C@H](CCC(N)=O)NC(=O)CNC(=O)[C@H](CCC(=O)O)NC(=O)[C@H](CC(C)C)NC(=O)[C@H](Cc1ccc(O)cc1)NC(=O)[C@H](CO)NC(=O)[C@H](CO)NC(=O)[C@@H](NC(=O)[C@H](CC(=O)O)NC(=O)[C@H](CO)NC(=O)[C@@H](NC(=O)[C@H](Cc1ccccc1)NC(=O)[C@@H](NC(=O)CNC(=O)[C@H](CCC(=O)O)NC(=O)C(C)(C)NC(=O)[C@@H](N)Cc1cnc[nH]1)[C@@H](C)O)[C@@H](C)O)C(C)C)C(=O)N[C@@H](C)C(=O)N[C@@H](Cc1c[nH]c2ccccc12)C(=O)N[C@@H](CC(C)C)C(=O)N[C@H](C(=O)N[C@@H](CCCNC(=N)N)C(=O)NCC(=O)N[C@@H](CCCNC(=N)N)C(=O)NCC(=O)O)C(C)C` — result for “diastolic blood pressure change”: -9.4 mmHg (hypoglycaemic clamp; type 2 diabetes patients; dose not given, nadir plasma glucose 5.5 mmol/L).
For `CNC(=O)c1cccc(-c2ccc(O[C@H]3O[C@H](CO)[C@@H](O)[C@H](O)[C@@H]3O)c(C)c2)c1`, the terminal half-life was 2.85 h (male Sprague-Dawley rat, plasma; oral, 10 mg/kg, group mean).
`O=S(=O)(Nc1cc(-c2ncn[nH]2)ccc1F)c1cc(Cl)cc(Cl)c1O`: “DLS scattered light intensity” 360000 counts/s (colloidal aggregate formation, dynamic light scattering; 50 mM potassium phosphate buffer; 200 µM, pH 7.0, 1% DMSO; higher = more aggregation).
The tissue uptake of `CC(C)C[C@H](NC(=O)C[C@H](O)[C@H](CC(C)C)NC(=O)[C@H](Cc1c[nH]cn1)NC(=O)CNC(=O)[C@@H](NC(=O)[C@H](C)NC(=O)[C@H](Cc1c[nH]c2ccccc12)NC(=O)[C@H](CCC(N)=O)NC(=O)[C@@H](Cc1ccccc1)NC(=O)COCCOCCNC(=O)CCC(C(=O)O)N1CCN(CC(=O)O)CCN(CC(=O)O)CCN(CC(=O)O)CC1)C(C)C)C(N)=O` (some centres unmarked) [lutetium-177 labelled] is reported as 6.5 ± 0.8 %ID/g (BALB/c nu/nu mice, pancreas; intravenous, 100 pmol, 1 h, added: PA 300 µg).
`c1ccc(-c2nc(N3CCC(c4ccccn4)C3)c3ccccc3n2)nc1` (centres unmarked) gave a blood concentration of 767 ng/mL (female Balb/c mice, blood; intravenous, 2 mg/kg, 4 h, mean, added: 1-aminobenzotriazole co-dosed).
With `C=CCn1c(=O)c2cnc(Nc3ccc(N4CCN(C)CC4)cc3)nc2n1-c1cccc(C(C)(C)O)n1` the Tmax was 1.9 h (human, plasma; oral, 250 mg once daily, -5-day lead-in, monotherapy lead-in).
Under “effect on RR”, `CN1C[C@H](COc2nccc3c(NCc4ccco4)cc(Cl)nc23)OC1=O` is recorded as “negative” (rabbit, isolated Langendorff heart; dose not given).
`Cn1cc(-c2ccc(-c3cncc(Cl)c3N3CCC4(CCNC4=O)CC3)cc2)cn1`: “log2 fold change” 2.55 (COLO 205; gene expression, microarray, refers to: PNRC1 mRNA; concentration not given, 6 h; baseline: untreated cells).
`Cc1ccc(Sc2ccccc2N2CCNCC2)c(C)c1` has a pyrexia incidence of 0% (healthy adult men; oral, 10 mg single dose, treatment-emergent adverse events).

Some of these lines once more:
`Cc1c(-c2ccc(N3CCc4cccc(C(=O)Nc5nc6ccccc6s5)c4C3)nc2C(=O)O)cnn1CC12CC3(C)CC(C)(C1)CC(OCCNCC[C@H](O)CO)(C3)C2` — result for “PR interval change”: -6 ms (anesthetized male beagle dogs; intravenous infusion, 0.3 mg/kg/min, 15 min; baseline: vehicle).
`Cc1nc(-c2ccc(OCC(C)C)c(C#N)c2)sc1C(=O)O` gave a pyrexia incidence of 5% (healthy Chinese subjects; oral, 40 mg, fed).
The AUC(0-72h) increase of `C#Cc1cccc(Nc2ncnc3cc(OCCOC)c(OCCOC)cc23)c1` is reported as 78% (UPLC-MS/MS; Wistar rat, male, plasma; oral, dose not given, four weeks, added: PPA 1000 mg/kg, high dose; baseline: control).
